Measurements from different studies.
Values joined by “and” are separate records of one study, mostly repeats; a detail may differ. ± marks the error that the study gave.

CCCCCCOC(=O)NC(=N)c1ccc(NCc2nc3cc(C(=O)N(CCC(=O)OCC)c4ccccn4)ccc3n2C)cc1  participants with TEAEs (human; oral, 75 mg, compound alone): 25%
N[C@@H]1c2cccnc2[C@H](OC(=O)N2CCC(n3c(=O)[nH]c4ncccc43)CC2)CC[C@H]1c1cccc(F)c1F  decrease in transit rate constant (human; oral, fed state; baseline: fasted state): 70.6%
CC(C)Oc1ccc2cc(C(=N)N)ccc2c1  logP (octanol/buffer; pH 11, urokinase ligand set): 2.24
CCCCCCCCCCCOC(=O)CCCCCN(CCO)CCCCCCCC(=O)OC(CCCCCCCC)CCCCCCCC  zeta potential (pH 5.5, formulated): 3.34 mV
Oc1ccc(/C=C/c2cc(O)cc(O)c2)cc1  AST level (rat, azoxymethane-injected, blood; in vivo, 100 mg/kg, at sacrifice): 270 IU/L and 172 IU/L and 291 IU/L
NC1(C(=O)N[C@@H](CCO)c2ccc(Cl)cc2)CCN(c2nc[nH]c3nccc2-3)CC1  dose-normalised Cmax (human, plasma; oral, 480 mg twice daily, together with: enzalutamide 160 mg daily): 917 ng/mL and 561 ng/mL and 915 ng/mL and 640 ng/mL and 1430 ng/mL
NC(=O)c1ccc(NCCCN2CCOCC2)c([N+](=O)[O-])c1  logP (octanol/buffer; pH 11, known kinase inactives set): 0.49
OC[C@H]1O[C@@H](c2ccc(F)c(Cc3cc4ccccc4s3)c2)[C@H](O)[C@@H](O)[C@@H]1O  hypoglycaemia-related adverse event (Japanese patients, type 1 diabetes; oral, 50 mg/day, onset day 4; baseline: patients): 6%
N=C(N)c1ccc2cc(C(=O)Nc3ccc4c(c3)C(c3ccccc3)=NCC4)ccc2c1  logP (octanol/buffer; pH 11, urokinase ligand set): 3.47
CCO[C@H]1CCN(Cc2c(OC)cc(C)c3[nH]ccc23)[C@H](c2ccc(C(=O)O)cc2)C1  unbound AUClast (human mild hepatic impairment, plasma; oral, 200 mg single dose, mean): 5970 ng·h/mL
CN[C@H](CC(C)C)C(=O)N[C@H]1C(=O)N[C@@H](CC(N)=O)C(=O)N[C@H]2C(=O)N[C@H]3C(=O)N[C@H](C(=O)N[C@H](C(=O)O)c4cc(O)cc(O)c4-c4cc3ccc4O)[C@H](O)c3ccc(c(Cl)c3)Oc3cc2cc(c3O[C@@H]2O[C@H](CO)[C@@H](O)[C@H](O)[C@H]2O[C@H]2C[C@](C)(N)[C@H](O)[C@H](C)O2)Oc2ccc(cc2Cl)[C@H]1O  time offset of concentration profile (male C57BL/6J mouse, cortex; intracerebroventricular, 84 µg; baseline: intravenous 35 mg/kg): 15 min
Cc1ccc(Sc2ccccc2N2CCNCC2)c(C)c1  participants with TEAE (measured: haemoglobin decreased; healthy adult women; oral, 10 mg daily, 12 days): 0%
COc1ncc(-c2nc3c(n2C(C)C)[C@H](c2ccc(Cl)cc2)N(c2cc(Cl)cn(C)c2=O)C3=O)c(OC)n1  AUC(0-t) geometric mean (human patients, plasma; oral, 350 mg, 0-24 h, high-dose arm, cycle 2 day 1): 37800 ng·h/mL
Nc1ccn([C@@H]2CS[C@H](CO)O2)c(=O)n1  drug concentration (Tat- transgenic mouse, hippocampus; subcutaneous osmotic pump, dose not given, 5 d): 27300 ± 3400 ng/g
CCc1cc(C(=O)NC)c2nccc(N3CCc4c(cc(Cn5ccnc5)cc4-c4cn(C)nc4C(F)(F)F)C3=O)c2c1  serum LDL change (Sprague Dawley rats; oral, 100 mg/kg twice daily, 7 days; baseline: vehicle): 2.9%
C[C@@H](Oc1ccc(S(C)(=O)=O)cc1C(=O)N1C[C@@H]2C[C@]2(c2cc(C(F)(F)F)on2)C1)C(F)(F)F  AUC(0-72 h) (young humans, plasma; oral, 25 mg single dose, geometric mean): 7.38 µM·h
OC[C@H]1OC(O)[C@H](O)[C@@H](O)[C@@H]1O (stereo partly drawn)  osmolality (aqueous solution; 2 mM, together with: glucosamine): 0 mOsmol/kg
CC(C)(C(=O)N1CCOc2c(C#N)cncc2C1)C(F)F  subjects with adverse event (measured: Conjunctivitis; human; oral, 10 mg once daily, 14 days, multiple ascending dose): 0%
COc1ccnc(C[S+]([O-])c2nc3ccc(OC(F)F)cc3[nH]2)c1OC (stereo not drawn)  dose-normalised AUC (human, plasma; oral, dose not given, median): 8.7 µg·h/mL per mg/kg
C=CC(=O)Nc1cc(Nc2nccc(-c3cn(C)c4ccccc34)n2)c(OC)cc1N(C)CCN(C)C  recovery (storage stability; human plasma; 10 d, on ice, HQC level): 63.2%
CCc1c(-c2ccccc2)c(-c2ccccc2)nn1-c1ccccc1-c1cccc(OCC(=O)O)c1  concentration (Sprague-Dawley rat, large intestine; oral, 10 mg/kg, 1 h): 980 ng/g and 1220 ng/g
CNC(=O)c1ccc(-c2cnc3ncc(Cc4ccc5ncccc5c4)n3n2)cc1F  ALT increased dose reduction/interruption (Japanese patients; oral, 400 mg, any grade): 2%
CC[C@@H]1CN(C(=O)NCC(F)(F)F)C[C@@H]1c1cnc2cnc3[nH]ccc3n12  Vc/F (population PK model; human, plasma; oral, outliers excluded): 156 L
Cc1c(-c2ccc(N3CCc4cccc(C(=O)Nc5nc6ccccc6s5)c4C3)nc2C(=O)O)cnn1CC12CC3(C)CC(C)(C1)CC(OCCNCC[C@H](O)CO)(C3)C2  plasma concentration (anaesthetized male beagle dog; iv infusion, 0.01 mg/kg/min, 15 min): < 2 ng/mL
Cc1cc(NC2CCN(C(=O)OC3CCN(C(=O)/C=C/CN(C)C)C3)CC2)n2ncc(C(C)C)c2n1 (stereo not drawn)  patients with adverse event (Phase I dose escalation CTCAE v4.0, measured: ALT increased; patients with advanced solid tumours; dose not given, Total dosing grade 3 or higher): 4%
O=[N+]([O-])c1ccc(-c2ccc(O)cc2)c2cccnc12  CL/F (male ICR mouse, plasma; oral, 5 mg/kg): 2490 mL/min/kg
CNC(=O)c1cc(Oc2ccc(NC(=O)Nc3ccc(Cl)c(C(F)(F)F)c3)c(F)c2)ccn1  long-term stability accuracy (mouse plasma; 750 ng/mL, 6 months, -80 °C): 91.8%
CN(CC#N)C(=O)C[C@H](Nc1nc2ccccc2[nH]1)c1cccc(C(F)(F)F)c1  steady-state volume of distribution (human; intravenous infusion, 6 mg/kg, 1 mg/mL formulation): 65 ± 12 L
CO[C@H]1/C=C/O[C@@]2(C)Oc3c(C)c(O)c4c(O)c(c(/C=N/N5CCN(C)CC5)c(O)c4c3C2=O)NC(=O)/C(C)=C\C=C\[C@H](C)[C@H](O)[C@@H](C)[C@@H](O)[C@@H](C)[C@H](OC(C)=O)[C@@H]1C  adverse event incidence (measured: general administration site conditions; healthy human participants; oral, 600 mg, together with: gepotidacin 1500 mg): 6%
CC(C)n1c(Nc2cccnc2)nc2cnc(Nc3ccc(N4CCN(C)CC4)cc3)nc21  subjects with adverse event (measured: alanine aminotransferase increased; healthy male subjects; oral, 150 mg, study, together with: rifampin): 7.1%
N#C[C@@]1(c2ccc3c(N)ncnn23)O[C@H](CO)[C@@H](O)[C@H]1O  recovery (plasma protein binding; mouse plasma; 10 µM, time not given): 101%
NC(=O)c1cnc2[nH]ccc2c1N[C@@H]1[C@@H]2CC3C[C@H]1C[C@@](O)(C3)C2  zero-order absorption duration (healthy human volunteers, plasma; oral, population PK model, bootstrap median): 1.29 h
C=CC(=O)N1CCC([C@@H]2CCNc3c(C(N)=O)c(-c4ccc(Oc5ccccc5)cc4)nn32)CC1  stability relative error (rat plasma; 400 ng/mL, 4 h, 10 °C, autosampler; baseline: nominal concentration): 5.7%
O=C(Nc1nc2cccc(-c3ccc(CN4CCS(=O)(=O)CC4)cc3)n2n1)C1CC1  treatment-emergent adverse events (measured: investigations; human rheumatoid arthritis patients; oral, 75 mg once daily, 4 weeks, regardless of relatedness): 0%
O=C(NO)[C@H]1CSC(c2ccc(OC(F)(F)F)c(Cl)c2)=N1  logP (octanol/buffer; pH 11): 1.24
COCCCC/C(=N\OCCN)c1ccc(C(F)(F)F)cc1  inhibition (total metabolite formation, inhibitor; dog hepatocytes suspension; 1 µM, 90 min, together with: ropinirole 1 µM): 87%
Cn1ncnc1[C@H]1c2n[nH]c(=O)c3cc(F)cc(c23)N[C@@H]1c1ccc(F)cc1  accumulation half-life (LC-MS/MS; human patients, plasma; oral, 600 µg/m2/day): 60 ± 51 h
CC(=O)c1ccc([C@H]2C[C@@]3(C)[C@@H](CC[C@@]3(O)C(F)(F)C(F)(F)F)[C@@H]3CCC4=CC(=O)CCC4=C32)cc1  serum concentration (human, pooled serum; oral, 200 mg, day 1, 0.5 h): 9.5 ng/mL
O=C1NCCc2nc(OCc3cccc(F)c3)ccc21  Irwin test score (measured: loss of Placing; Sprague-Dawley rat male; oral, 100 mg/kg, 30 min; direction not given): 0
NC1(C(=O)N[C@@H](CCO)c2ccc(Cl)cc2)CCN(c2nc[nH]c3nccc2-3)CC1  zero-order absorption duration (human): 45 h
CC[C@H](C)[C@H](NC(=O)[C@H](Cc1ccccc1)NC(=O)[C@H](CCC(=O)O)NC(=O)[C@H](CCCCNC(=O)COCCOCCNC(=O)COCCOCCNC(=O)CC[C@H](NC(=O)CCCCCCCCCCCCCCCCC(=O)O)C(=O)O)NC(=O)[C@H](C)NC(=O)[C@H](C)NC(=O)[C@H](CCC(N)=O)NC(=O)CNC(=O)[C@H](CCC(=O)O)NC(=O)[C@H](CC(C)C)NC(=O)[C@H](Cc1ccc(O)cc1)NC(=O)[C@H](CO)NC(=O)[C@H](CO)NC(=O)[C@@H](NC(=O)[C@H](CC(=O)O)NC(=O)[C@H](CO)NC(=O)[C@@H](NC(=O)[C@H](Cc1ccccc1)NC(=O)[C@@H](NC(=O)CNC(=O)[C@H](CCC(=O)O)NC(=O)C(C)(C)NC(=O)[C@@H](N)Cc1cnc[nH]1)[C@@H](C)O)[C@@H](C)O)C(C)C)C(=O)N[C@@H](C)C(=O)N[C@@H](Cc1c[nH]c2ccccc12)C(=O)N[C@@H](CC(C)C)C(=O)N[C@H](C(=O)N[C@@H](CCCNC(=N)N)C(=O)NCC(=O)N[C@@H](CCCNC(=N)N)C(=O)NCC(=O)O)C(C)C  dose-normalised AUC(0-t) (LC-MS/MS; Chinese patients with type 2 diabetes, plasma; subcutaneous, single dose 0.114 mg, up to 840 h, least-squares mean): 5840 nmol·h/L/mg
C[C@H](Oc1ccc(Br)cc1-c1ccon1)C(=O)O  accumulation ratio (AUC) (human, plasma; 200 mg once daily, day 10; baseline: day 1): 0.918
C=CCN1CC(=O)N2[C@@H](Cc3ccc(O)cc3F)C(=O)N(Cc3cccc(N4CC(N5CCN(CC)CC5)C4)n3)C[C@@H]2N1C(=O)NCc1ccccc1  treatment-related nausea (advanced solid tumour patients; oral, 20 mg twice daily, any grade, dose-escalation): 66.7%
NS(=O)(=O)c1ccc(NN=C2C(=O)Nc3ccc4[nH]nnc4c32)cc1  logP (octanol/buffer; pH 11): -0.62
COc1cc(Nc2ncc3c(n2)-c2ccc(Cl)cc2C(c2c(F)cccc2OC)=NC3)ccc1C(=O)O  patients with adverse event (measured: Pruritus, grade 2; cancer patients, phase 1/2; oral, dose not given, together with: pembrolizumab): 8%
COc1c(OCCCN2CCOCC2)ccc2c1N=C(NC(=O)c1cnc(N)nc1)N1CCN=C21  increase in clearance (human; concentration not given, together with: rifampin): 191%
Cc1cc(NC(=O)c2cccc(NC(=O)/C=C/CN(C)C)c2)ccc1Nc1nccc(-c2cccnc2)n1  scaled intrinsic clearance (Wistar rat male, primary hepatocytes): 15.1 mL/min/kg
Cc1c(NC(=O)C2CCCN2S(=O)(=O)c2ccccc2)c(=O)n(-c2ccccc2)n1C (stereo not drawn)  logP (octanol/buffer; pH 11, known kinase inactives set): 0.98
C[C@@H](N)C1CCN(S(=O)(=O)c2cccc3cnccc23)CC1  participants with photophobia (healthy volunteers; 75 mg, fasted): 0%
COc1ccc(C(=O)O)cc1OS(=O)(=O)O  CSF concentration (human, cerebrospinal fluid; concentration not given, median): 18.8 nM
O=C1CCc2ccc(OCCCCN3CCN(c4cccc(Cl)c4Cl)CC3)cc2N1  gastrointestinal symptom frequency (CYP2D6 normal metabolizers; concentration not given, genotype-based phenotype, long-acting oral or depot): 4.7%
COc1ccc(NC(=O)CSc2nnnn2C)cc1  logP (octanol/buffer; pH 11, known kinase inactives set): 1.26
CNCc1ccc(-c2[nH]c3cc(F)cc4c3c2CCNC4=O)cc1  incidence of decreased appetite (human patients; oral, dose not given, all grades, all doses): 28.6%
C[C@@H](c1nc(-c2ccc(C#N)cc2)cs1)[C@](O)(Cn1cncn1)c1cc(F)ccc1F  adverse event Paronychia (healthy humans; oral, dose not given, together with: ketoconazole): 0%
CNC(=O)c1ccc(-c2cnc3ncc(Cc4ccc5ncccc5c4)n3n2)cc1F  patients with adverse event (measured: Fatigue; gastric cancer patients; oral, 600 mg twice daily, expansion cohort, grade 3-4): 22%
O=c1c2ccccc2oc2ccccc12  solubility (tricaprin-tricaprylin mixture; 45 °C, tricaprin fraction 0.36): 0.0608 mole fraction
C=CC(=O)N(C)CCOc1c(N)ncnc1-c1cc(F)cc(NC(=O)c2ccc(C3CC3)cc2F)c1C  Cmax per dose (human; oral, 50 mg, day 3, median, given alone): 2.38 ng/mL/mg
